Experimental data of several laboratories.
Lines come from different studies, so protocols differ. ± marks the error that the study gave.

| Substance | cell line | assay | system | setting | scale | quantity | result |
| --- | --- | --- | --- | --- | --- | --- | --- |
| O=C(NO)c1ccc(Cn2cc(Cn3cnc4ccccc4c3=O)nn2)cc1 | MRC5 | cell growth or viability, MTT |  | 48 h |  | IC50 | 48.5 µM |
| O=C1c2cccc3ccc4ccc5cccc1c5c4c23 | HaCaT | EROD activity |  | 10 µM, up to 24 h, with: 5 nM TCDD |  | inhibition | > 90% |
| O=[N+]([O-])c1ccc(-n2nc(-c3cccs3)sc2=NN=Cc2ccccc2)cc1 | Vero and HepG2 | cytotoxicity |  |  | baseline: CC50 Vero over IC50 HepG2 | selectivity index | 112 |
| COc1cccc2c1C(=O)c1c(O)c3c(c(O)c1C2=O)C[C@@](O)(C(=O)CO)C[C@@H]3O[C@H]1C[C@H](N)[C@H](O)[C@H](C)O1 | C2C12 cells | MTT |  | concentration not given, 72 h | baseline: control | viability | 28.6% |
| O=C(O[C@@H]1Cc2c(O)cc(O)cc2O[C@@H]1c1cc(O)c(O)c(O)c1)c1cc(O)c(O)c(O)c1 | Caco-2 TC7 |  | PBS | concentration not given, 3 h, pH 5, 37 °C | baseline: dose | cellular accumulation | 1.35 ± 0.16% |
| O=C(c1nc2ccccc2[nH]1)[C@H]1[C@H](c2cccc(F)c2)[C@H]2CCCN2[C@@]12c1ccccc1-c1nc3ccccc3nc12 | WI-38 lung fibroblasts | cytotoxicity, MTT | medium with 10% FBS | 72 h, dose at 100% viability |  | EC100 | 0.073 ± 0.007 µM |
| O=[N+]([O-])c1ccc(-n2nc(-c3cccs3)sc2=NN=Cc2cn(-c3ccccc3)nc2-c2ccccc2)cc1 | Vero and HepG2 | cytotoxicity |  |  | baseline: CC50 Vero over IC50 HepG2 | selectivity index | 90.4 |
| C=C(C[C@H](N)C(=O)O)C(=O)NCc1ccc([N+](=O)[O-])cc1 | MCF7 | necrosis |  | 24 h |  | EC50 | > 316 µM |
| Oc1cc(O)c2c(c1)O[C@H](c1cc(O)c(O)c(O)c1)[C@H](O)C2 | Caco-2 TC7 |  | PBS | concentration not given, 3 h, pH 5, 37 °C, with: EGCG | baseline: dose | cellular accumulation | 0.19 ± 0.02% |
| Cn1c(C(=O)NCCCc2c[nH]c(N)n2)cc(Br)c1Br | HaCaT | MTT |  | overnight, 50% toxicity, 10% FBS |  | toxic concentration | 492 µM |
| O=C(NO)c1ccc(Cn2cc(Cn3cnc4ccc(I)cc4c3=O)nn2)cc1 | MRC5 | cell growth or viability, MTT |  | 48 h |  | IC50 | 9.2 µM |
| Fluo-4 | HeLa | flow cytometry |  | 10 µM | baseline: charge-neutral linear analogue | cellular uptake | 16 fold |
| O=C(O)P(=O)(O)O | HepG2-NTCP | viability |  |  |  | CC50 | > 25 µM |
| C=C(C[C@H](N)C(=O)O)C(N)=O | MCF7 | necrosis |  | 24 h |  | EC50 | 151 µM |
| O=C(c1nc2ccccc2[nH]1)[C@H]1[C@H](c2ccccc2)[C@H]2CCCN2[C@@]12c1ccccc1-c1nc3ccccc3nc12 | WI-38 lung fibroblasts | cytotoxicity, MTT | medium with 10% FBS | 72 h, dose at 100% viability |  | EC100 | 0.086 ± 0.003 µM |
| O=[N+]([O-])c1ccc(-n2nc(-c3cccs3)sc2=NN=C2CCCc3ccccc32)cc1 | Vero and HepG2 | cytotoxicity |  |  | baseline: CC50 Vero over IC50 HepG2 | selectivity index | 53 |
| salmon calcitonin | Calu-3 monolayer, air-liquid interface |  |  | 1 mg/mL apical, 3 h, pH 7.4, 37 °C, with or without HTCC |  | compound share in basal compartment | 0% |

| Substance | cell line | assay | system | setting | scale | quantity | result |
| --- | --- | --- | --- | --- | --- | --- | --- |
| Cc1ccc(C=NN=c2sc(-c3cccs3)nn2-c2ccc([N+](=O)[O-])cc2)cc1 | Vero and HepG2 | cytotoxicity |  |  | baseline: CC50 Vero over IC50 HepG2 | selectivity index | 132 |
| O=C(c1nc2ccccc2[nH]1)[C@H]1[C@H](c2ccc(Br)cc2)[C@H]2CCCN2[C@@]12c1ccccc1-c1nc3ccccc3nc12 | WI-38 lung fibroblasts | cytotoxicity, MTT | medium with 10% FBS | 72 h, dose at 100% viability |  | EC100 | 0.071 ± 0.001 µM |
| N=C(N)NCCC[C@@H]1NC(=O)[C@H](Cc2ccc3ccccc3c2)NC(=O)[C@@H](Cc2ccccc2)NC(=O)[C@H](Cc2ccccc2)NC(=O)[C@H](CCC(N)=O)NC(=O)[C@@H](CCCNC(=N)N)NC(=O)[C@H](CCCNC(=N)N)NC(=O)[C@@H](CCCNC(=N)N)NC1=O | HeLa | flow cytometry |  | cytosolic entry | baseline: 1% over 10% FBS | serum effect on uptake | ~25 fold |
| CCCCCCCCc1ccc(CC[C@](N)(CO)COP(=O)(O)O)cc1 | primary human cardiac myocytes |  | supernatant | 100 nM |  | time to phosphate metabolite detection | 3 h |
| O=C(NO)c1ccc(Cn2cc(Cn3cnc4cc(F)ccc4c3=O)nn2)cc1 | MRC5 | cell growth or viability, MTT |  | 48 h |  | IC50 | 12.9 µM |
| CC(=NN=c1sc(-c2cccs2)nn1-c1ccc([N+](=O)[O-])cc1)c1ccccc1 | Vero and A549 | cytotoxicity |  |  | baseline: CC50 Vero over IC50 A549 | selectivity index | 96.4 |
| C=C(C[C@H](N)C(=O)O)C(=O)N1CCCCC1 | MCF7 | necrosis |  | 24 h |  | EC50 | 195 µM |
| O=C(NO)c1ccc(Nc2nc(Nc3ccc(C(=O)NO)cc3)nc(Nc3ccc(C(=O)NO)cc3)n2)cc1 | WI-38 cells | cell viability, MTT |  | 72 h |  | maximum non-toxic concentration | 5.8 ± 0.277 nM |
| O=C(c1nc2ccccc2[nH]1)[C@H]1[C@H](c2ccc(Cl)cc2Cl)[C@H]2CCCN2[C@@]12c1ccccc1-c1nc3ccccc3nc12 | WI-38 lung fibroblasts | cytotoxicity, MTT | medium with 10% FBS | 72 h, dose at 100% viability |  | EC100 | 0.263 ± 0.083 µM |
| O=C(NNc1nc(O)nc(O)n1)c1ccc(Nc2nc(Nc3ccc(C(=O)NNc4nc(O)nc(O)n4)cc3)nc(Nc3ccc(C(=O)NNc4nc(O)nc(O)n4)cc3)n2)cc1 | WI-38 cells | cell viability, MTT |  | 72 h |  | maximum non-toxic concentration | 1.5 nM |
| CN(C)C(=O)CCSC(SCCC(=O)O)c1cccc(/C=C/c2ccc3ccc(Cl)cc3n2)c1 (stereo not shown) | Jurkat-DNR | cytotoxicity, refers to: cell viability |  |  |  | TD50 | 20.4 µM |
| C=C(C[C@H](N)C(=O)O)C(=O)Nc1ccccc1 | MCF7 | necrosis |  | 24 h |  | EC50 | > 316 µM |
| O=[N+]([O-])c1ccc(-n2nc(-c3cccs3)sc2=NN=C2CCCCCC2)cc1 | Vero and A549 | cytotoxicity |  |  | baseline: CC50 Vero over IC50 A549 | selectivity index | 124 |
| C=C(C[C@H](N)C(=O)O)C(=O)Nc1ccc(F)cc1 | MCF7 | necrosis |  | 24 h |  | EC50 | 158 µM |
| CC(=NN=c1sc(-c2cccs2)nn1-c1ccc([N+](=O)[O-])cc1)c1ccc2ccccc2c1 | Vero and A549 | cytotoxicity |  |  | baseline: CC50 Vero over IC50 A549 | selectivity index | 93 |
| C=C(C[C@H](N)C(=O)O)C(=O)NCc1ccc(F)cc1 | MCF7 | necrosis |  | 24 h |  | EC50 | > 316 µM |
| C[C@H](NC(=O)CCCCCC1(C)C(=CC=CC=CC2=[N+](CCCS(=O)(=O)[O-])c3ccc(S(=O)(=O)O)cc3C2(C)C)N(CCCS(=O)(=O)O)c2ccc(S(=O)(=O)O)cc21)C(=O)N[C@@H](CC(=O)Nc1ccc(C(F)(F)C(F)(F)C(F)(F)C(F)(F)C(F)(F)C(F)(F)C(F)(F)C(F)(F)F)cc1)C(=O)N[C@@H](Cc1ccccc1)C(N)=O (stereo partly shown) | HeLa | peptide internalisation, flow cytometry |  | 150 nM, 1 h, 4 °C | baseline: 37 °C | cellular uptake | decreased |

Excerpt of the above:
| Substance | cell line | assay | system | setting | scale | quantity | result |
| --- | --- | --- | --- | --- | --- | --- | --- |
| O=C(NO)c1ccc(Cn2cc(Cn3cnc4ccc(I)cc4c3=O)nn2)cc1 | MRC5 | cell growth or viability, MTT |  | 48 h |  | IC50 | 9.2 µM |
| O=C1c2cccc3ccc4ccc5cccc1c5c4c23 | HaCaT | EROD activity |  | 10 µM, up to 24 h, with: 5 nM TCDD |  | inhibition | > 90% |
| O=C(c1nc2ccccc2[nH]1)[C@H]1[C@H](c2cccc(F)c2)[C@H]2CCCN2[C@@]12c1ccccc1-c1nc3ccccc3nc12 | WI-38 lung fibroblasts | cytotoxicity, MTT | medium with 10% FBS | 72 h, dose at 100% viability |  | EC100 | 0.073 ± 0.007 µM |
| O=[N+]([O-])c1ccc(-n2nc(-c3cccs3)sc2=NN=Cc2ccccc2)cc1 | Vero and HepG2 | cytotoxicity |  |  | baseline: CC50 Vero over IC50 HepG2 | selectivity index | 112 |
